Published values pooled from the literature.
Numbered parts are unrelated; each lists some results of a single study. Substitutions count along the parent as printed.

Block 1 — target: CCNE2, cyclin fold, Cln2 fusion (human); technique: yeast growth competition, sequencing; medium: yeast; setting: weak parent motif; reference: not given; reading: higher = stronger binding; endpoint: normalised enrichment score
Starting sequence: CDKN1C docking peptide (human); TSACRSLFGPVDH; partner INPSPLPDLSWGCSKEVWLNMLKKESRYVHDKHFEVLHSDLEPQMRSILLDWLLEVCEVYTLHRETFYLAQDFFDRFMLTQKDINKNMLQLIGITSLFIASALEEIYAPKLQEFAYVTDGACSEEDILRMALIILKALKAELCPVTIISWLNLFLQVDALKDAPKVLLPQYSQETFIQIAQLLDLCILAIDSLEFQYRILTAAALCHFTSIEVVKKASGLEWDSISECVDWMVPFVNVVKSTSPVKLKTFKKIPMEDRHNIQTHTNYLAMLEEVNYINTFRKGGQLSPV
P10A: 0.842
V11A: 1.09
R5A: -0.424
T1A: 0.631
R5K: 0.465
C4A: 0.122
G9A: 1.08

Block 2 — technique: protein-binding microarray; form: double-stranded DNA, one strand shown; medium: in vitro; concentration: 2540 nM top; setting: 60-bp whole probe; together with: salmon DNA 0.4 mg/ml; reference: random background probes; reading: higher = stronger binding; endpoint: fitted relative affinity; shared flanks, not repeated: GCCTAGCAC … GTCTTGATTCGCTTGACGCTGCTG
Target: Interferon regulatory factor 3, full length, phosphomimetic (IRF3, Homo sapiens, UniProt Q14653, residues 1-427, S386D/S396D/S398D/S402D/T404D/S405D)
Residues (chain): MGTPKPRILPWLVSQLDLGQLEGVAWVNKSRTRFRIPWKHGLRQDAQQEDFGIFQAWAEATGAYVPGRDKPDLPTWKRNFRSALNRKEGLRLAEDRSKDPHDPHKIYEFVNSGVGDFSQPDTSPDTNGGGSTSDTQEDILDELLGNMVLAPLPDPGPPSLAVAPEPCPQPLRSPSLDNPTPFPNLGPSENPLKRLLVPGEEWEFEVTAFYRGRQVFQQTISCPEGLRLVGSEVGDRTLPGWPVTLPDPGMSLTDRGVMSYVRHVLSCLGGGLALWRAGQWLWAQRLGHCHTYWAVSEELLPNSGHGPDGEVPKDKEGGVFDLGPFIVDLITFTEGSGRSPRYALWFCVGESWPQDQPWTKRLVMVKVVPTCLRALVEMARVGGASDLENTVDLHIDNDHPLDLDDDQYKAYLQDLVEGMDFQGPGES
TACTTTCTACTTCTCTTTTTGTGCTAG: 3.28 z-score
GTCGGTCTCCTACTGCTGACGTGCTAG: 2.51 z-score
TTAGATTCCAGTTCCGATTAGTGCTAG: 3.65 z-score
GACGGTCTCTGTCTCGGGACGTGCTAG: 0.714 z-score
TTAGGTCTCGGTATCGGTTGGTGCTAG: 2.02 z-score
ATTTGCTTCAGGTTTACCAGAGTGCTA: 0.797 z-score
TTAGGTCTCGTTCTCGGTTAGTGCTAG: 1.81 z-score
CCCACTTTCAGTTCTCCCTTGTGCTAG: 4.69 z-score
TCTGTTTTCTCCATGGAAGAGTGCTAG: 2.07 z-score
TTAGGACTTGACACTGGGTTAGTGCTA: -0.789 z-score
GACGGTTTCGACACTGGGGATGTGCTA: 3.24 z-score
TTAGGTTCCTGTTTCGGTTAGTGCTAG: 6.27 z-score
TACGGTATCGGTCTCGGGACGTGCTAG: 4.33 z-score
TTATGACTGGGACTGGGTTAGTGCTAG: -0.762 z-score
GACGATTTCGGGTATCGAGGCGTGCTA: 1.73 z-score
CCCTATTTAAGGCATCTGCAGGTGCTA: 1.33 z-score
ATCGTAAGCAAAAATGATTGGTGCTAG: -0.303 z-score
GCCATTTTCCCTCCCTAATTGTGCTAG: 3.3 z-score
GACGGACTGCTACTGCGGACGTGCTAG: -0.606 z-score

Block 3 — technique: RNA Bind-n-Seq; form: RNA; medium: in vitro; concentration: not given; setting: RNA with constant flanks, ends assumed; reference: input RNA pool; reading: higher = stronger binding; endpoint: bound/input enrichment
Target: RING finger protein unkempt homolog, zinc fingers 1-6, GST-SBP tag (UNK, Homo sapiens, UniProt Q9C0B0, residues 30-357)
Chain of UniProt Q9C0B0 (30-357, looked up): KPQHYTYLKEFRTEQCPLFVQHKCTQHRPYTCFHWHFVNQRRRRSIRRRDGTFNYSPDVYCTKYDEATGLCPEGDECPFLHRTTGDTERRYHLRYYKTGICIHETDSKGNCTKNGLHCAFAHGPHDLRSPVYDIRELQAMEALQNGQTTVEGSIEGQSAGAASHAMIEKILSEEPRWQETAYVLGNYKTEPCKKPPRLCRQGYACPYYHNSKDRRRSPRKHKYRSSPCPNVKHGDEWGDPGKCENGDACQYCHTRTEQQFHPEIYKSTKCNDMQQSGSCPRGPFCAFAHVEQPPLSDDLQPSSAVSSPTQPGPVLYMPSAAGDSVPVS
Shared flanks, not repeated: GGGAGUUCUACAGUCCGACGAUC … CAACAGAGGAUUGAGCAUCA
AGGGCAGUGGUAAAAAAUAAUCUUGCCCCACUUUUGAUGUGCAAGGAAUUGGUCACCAUUCCGUAUAUGUUUACUGGCUUCAUCACGGACCCUUAUGUCAACAGGUUCUUUCCAUUCCUA: 0.136 ratio
CCAACAACAAAAAUUCAAAUCAGGUUAGCAGAUGGGAGUCGUUUGAUACAAAGAUUCAACCGUACACACAGGAUCCUGGAUGUCCGGAACUUUAUUGUACAGUCUCGUCCUGAAUUUGCG: 0.158 ratio
CAGCUCCAGUCUAAUACCUAUGACCUCCAAGAGAGCAACGUGAGGCUAAAGCUCACGAUCGUCCGCACAGUUGGCUUUGGGGACCAGAUCAACAAAGAGGACAGCUACAAGCCUAUCGUG: 0.121 ratio
UUUAUCGCAGCAGUUGAUCUAGAUGAGAUGCCAUUCACUUUUACUGAGCUACAGAAAAGCACCGAAACCAGUGUCUAUAAAUUCUUUGACUUAUUAAAAGAAAUCGAUACCAGUACCAAG: 0.313 ratio
AACAAAAAUCAAGAGAAUGUUUCUCAUCUCUCAGUUUCUUCUGCUUCACCAACAUCAUCUGCCGCAUCAGCUGCAGGAAGCAUAACAAGCUCUAGUCUGCAGAAAUCUCCUACAUUGCUC: 0.147 ratio
UCCCUAAAGAUCAUCGGGAGACUUCAUUGGAUUGACAGAGAAAAGCUUCGAAGUUUCAUCUCCGCGUGUCAAGAUGAAGAGACGGGAGGAUUUGCAGACAGACCAGGAGAUAUGGUGGAU: 0.207 ratio
UUUCACAUUUGGUGAGUGGGGCAGCAUUUCCUUCUCCCACUGCUGCUGAGAUGGCAGAAAUCCGUCGAAUUCAGUAUGAAAUGGAAUACACCGAAGGUAUUAGUCAGCGAAUGAGGGUCC: 0.28 ratio
GUGGCAGACGCUGUCACUUACCAGCUUGGUUUCCACAGUAUUGAACUGAACGAGCCUCCACCCGUCCACACAGCCGCCAGUCUCUUUAAGGAGAUGUGUUACCGGUACAGAGAAGAUCUG: 0.123 ratio

Block 4 — target: NFIL3, bZIP domain (human); technique: DHFR protein complementation; medium: yeast; reference: wild-type JUN-FOS pair; reading: higher = stronger binding; endpoint: binding fitness
Setting: single substitutions, most at no-binding floor
Starting sequence: JUN, bZIP domain (human); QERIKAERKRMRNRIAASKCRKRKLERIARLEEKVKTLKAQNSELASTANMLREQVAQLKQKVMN; partner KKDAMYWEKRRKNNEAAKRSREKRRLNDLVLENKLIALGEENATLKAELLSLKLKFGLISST
E32Y: -1.33 natural log
N42P: -1.43 natural log
E54N: -1.46 natural log
K36S: -1.15 natural log
K34P: -1.46 natural log
M51H: -1.47 natural log
N42K: -1.46 natural log
E33S: -1.49 natural log
L38V: -1.45 natural log
A40R: -1.51 natural log
K39F: -1.4 natural log
S43V: -1.36 natural log
S47Q: -1.38 natural log
S43E: -1.25 natural log
L45F: -1.51 natural log
Q41Y: -1.48 natural log

Some of these lines once more (block 3):
AGGGCAGUGGUAAAAAAUAAUCUUGCCCCACUUUUGAUGUGCAAGGAAUUGGUCACCAUUCCGUAUAUGUUUACUGGCUUCAUCACGGACCCUUAUGUCAACAGGUUCUUUCCAUUCCUA: 0.136 ratio
CCAACAACAAAAAUUCAAAUCAGGUUAGCAGAUGGGAGUCGUUUGAUACAAAGAUUCAACCGUACACACAGGAUCCUGGAUGUCCGGAACUUUAUUGUACAGUCUCGUCCUGAAUUUGCG: 0.158 ratio
CAGCUCCAGUCUAAUACCUAUGACCUCCAAGAGAGCAACGUGAGGCUAAAGCUCACGAUCGUCCGCACAGUUGGCUUUGGGGACCAGAUCAACAAAGAGGACAGCUACAAGCCUAUCGUG: 0.121 ratio
UUUAUCGCAGCAGUUGAUCUAGAUGAGAUGCCAUUCACUUUUACUGAGCUACAGAAAAGCACCGAAACCAGUGUCUAUAAAUUCUUUGACUUAUUAAAAGAAAUCGAUACCAGUACCAAG: 0.313 ratio
AACAAAAAUCAAGAGAAUGUUUCUCAUCUCUCAGUUUCUUCUGCUUCACCAACAUCAUCUGCCGCAUCAGCUGCAGGAAGCAUAACAAGCUCUAGUCUGCAGAAAUCUCCUACAUUGCUC: 0.147 ratio
UCCCUAAAGAUCAUCGGGAGACUUCAUUGGAUUGACAGAGAAAAGCUUCGAAGUUUCAUCUCCGCGUGUCAAGAUGAAGAGACGGGAGGAUUUGCAGACAGACCAGGAGAUAUGGUGGAU: 0.207 ratio
UUUCACAUUUGGUGAGUGGGGCAGCAUUUCCUUCUCCCACUGCUGCUGAGAUGGCAGAAAUCCGUCGAAUUCAGUAUGAAAUGGAAUACACCGAAGGUAUUAGUCAGCGAAUGAGGGUCC: 0.28 ratio
GUGGCAGACGCUGUCACUUACCAGCUUGGUUUCCACAGUAUUGAACUGAACGAGCCUCCACCCGUCCACACAGCCGCCAGUCUCUUUAAGGAGAUGUGUUACCGGUACAGAGAAGAUCUG: 0.123 ratio
